{"data": "Results from different studies", "organism": "Pseudomonas aeruginosa", "note": "Protocols differ between the studies behind these lines."}
{"Molecule": "CC[C@H]1OC(=O)[C@H](C)[C@@H](O[C@H]2C[C@@](C)(OC)[C@@H](O)[C@H](C)O2)[C@H](C)[C@@H](O[C@@H]2O[C@H](C)C[C@H](N(C)C)[C@H]2O)[C@](C)(OC)C[C@@H](C)C(=O)[C@H](C)[C@@H](O)[C@]1(C)O", "test": "checkerboard broth microdilution", "system": "clinical isolate 17-99", "conditions": "with: magainin II", "quantity": "FIC index", "value": 1.5}
{"Molecule": "CCOC(=O)N1CCN(Cn2nc(C34CC5CC(CC(C5)C3)C4)n(-c3ccccc3)c2=S)CC1", "system": "IFO 3448", "conditions": "200 µg/disc, 24 h, 37 °C", "quantity": "inhibition zone diameter", "value": "< 10 mm"}
{"Molecule": "Cc1cc(C)n(C(N)=S)n1.Cc1ccc(C(C)C)cc1.[Cl][Ru][Cl]", "test": "broth microdilution, agar subculture", "system": "ATCC 25619", "quantity": "MBC", "value": "> 1000 µg/mL"}
{"Molecule": "C[C@@H](O)[C@H]1C(=O)N2C(C(=O)O)=C(S[C@@H]3CN[C@H](C(=O)N(C)C)C3)[C@H](C)[C@H]12", "test": "checkerboard broth microdilution", "system": "clinical isolate 17-99", "conditions": "with: magainin II", "quantity": "FIC index", "value": 0.312}
{"Molecule": "O=C(O)CSc1nnc(C23CC4CC(CC(C4)C2)C3)n1-c1ccccc1", "system": "IFO 3448", "conditions": "200 µg/disc, 24 h, 37 °C", "quantity": "inhibition zone diameter", "value": "< 10 mm"}
{"Molecule": "O=C(Nc1ccccc1F)c1ccccc1O", "test": "microbial growth, broth dilution", "system": "ATCC27853", "quantity": "MIC", "value": "> 64 µg/mL"}
{"Molecule": "CC(=O)N[C@@H](C)C(=O)N[C@@H](CCC(N)=O)C(=O)N[C@@H](CCCCN)C(=O)N[C@@H](CC(C)C)C(=O)N[C@@H](CC(C)C)C(=O)N[C@@H](CCCCN)C(=O)N[C@@H](CCCCN)C(=O)N[C@@H](Cc1ccccc1)C(=O)N[C@@H](CO)C(=O)N[C@@H](CC(C)C)C(=O)N[C@@H](CC(C)C)C(=O)N[C@@H](CCCCN)C(=O)N1CCC[C@H]1C(=O)N[C@@H](Cc1c[nH]c2ccccc12)C(=O)N[C@@H](C)C(=O)O", "test": "spermidine uptake", "system": "PA14", "conditions": "25 µM, 45 min pretreatment, 35 °C, with: [14C]spermidine, 15 min", "quantity": "inhibition", "value": "66%"}
{"Molecule": "Cc1ccc(S(=O)(=O)Oc2cccc(C(C)C)cc2=O)cc1", "test": "microbial growth, broth dilution", "system": "ATCC27853", "quantity": "MIC80", "value": "> 100 µM"}
{"Molecule": "O=C(Nc1ccc(F)cc1)c1ccccc1O", "test": "microbial growth, broth dilution", "system": "ATCC27853", "quantity": "MIC", "value": "> 64 µg/mL"}
{"Molecule": "C[C@H]1c2cccc(O)c2C(=O)C2=C(O)[C@]3(O)C(=O)C(C(N)=O)=C(O)[C@@H](N(C)C)[C@@H]3[C@@H](O)[C@@H]21", "test": "checkerboard", "system": "ATCC 27853", "conditions": "with: magainin II", "quantity": "FIC index", "value": 1.5}
{"Molecule": "O=C1Nc2ccccc2C1=O", "system": "MPAO1", "conditions": "concentration not given, 20 min pre-exposure, static conditions", "quantity": "CNP inhibition of biofilm formation", "value": "inhibited"}
{"Molecule": "C=CCc1cc(/C=C2/SC(Nc3ccc(S(N)(=O)=O)cc3)=NC2=O)c(O)c(OC)c1", "test": "microbial growth", "system": "ATCC10145", "conditions": "50 µg/mL, 24 h", "quantity": "inhibition", "value": "32.1%"}
{"Molecule": "CC1(C)S[C@@H]2[C@H](NC(=O)[C@H](N)c3ccc(O)cc3)C(=O)N2[C@H]1C(=O)O", "system": "hospitalized pneumonia patients, clinical isolates", "conditions": "Fine score 70 or more", "quantity": "susceptible isolates", "value": "0%"}
{"Molecule": "CCc1cc(CC)n(C(N)=S)n1", "test": "broth microdilution, agar subculture", "system": "ATCC 25619", "conditions": "24 h", "quantity": "MBC", "value": "> 1000 µg/mL"}
{"Molecule": "colistin", "test": "checkerboard titration", "system": "17-99", "conditions": "with: ranalexin", "quantity": "FIC index", "value": 0.25}
{"Molecule": "Polymyxin B", "system": "PAO1", "conditions": "32 µg/mL, 24 h, 37 °C", "quantity": "biofilm dispersal", "value": "100%"}
{"Molecule": "ILPWKWPWWPWRR", "test": "biofilm formation", "system": "peptide, PAO1", "conditions": "24 h, 37 °C", "quantity": "MBIC", "value": "> 32 µg/mL"}
{"Molecule": "O=C(Nc1ccc(F)cc1[N+](=O)[O-])c1ccccc1O", "test": "microbial growth, broth dilution", "system": "ATCC27853", "quantity": "MIC", "value": "> 64 µg/mL"}
{"Molecule": "CN(C)c1ccc(/C=C2/SC(Nc3ccc(S(N)(=O)=O)cc3)=NC2=O)cc1", "test": "microbial growth", "system": "ATCC10145", "conditions": "50 µg/mL, 24 h", "quantity": "inhibition", "value": "37.6%"}
{"Molecule": "CC[C@H]1OC(=O)[C@H](C)[C@@H](O[C@H]2C[C@@](C)(OC)[C@@H](O)[C@H](C)O2)[C@H](C)[C@@H](O[C@@H]2O[C@H](C)C[C@H](N(C)C)[C@H]2O)[C@](C)(O)C[C@@H](C)C(=O)[C@H](C)[C@@H](O)[C@]1(C)O", "system": "hospitalized pneumonia patients, clinical isolates", "conditions": "Fine score 70 or more", "quantity": "susceptible isolates", "value": "0%"}
{"Molecule": "O=C(Nc1ccc(F)cc1)c1cc(Cl)ccc1O", "test": "microbial growth, broth dilution", "system": "ATCC27853", "quantity": "MIC", "value": "> 64 µg/mL"}
{"Molecule": "CC(C)C[C@H](NC(=O)CNC(=O)[C@H](C)NC(=O)c1ccc(S[C@@H]2O[C@H](CO)[C@H](O)[C@H](O)[C@H]2O)cc1)C(=O)N[C@@H](C)C(=O)N[C@H]1CCN(c2cc3c(cc2F)c(=O)c(C(=O)O)cn3C2CC2)C1", "test": "broth microdilution", "system": "PA14, culture supernatant in PBS", "conditions": "10% supernatant, pre-incubation under 10 min", "quantity": "MIC", "value": "0.78 to 1.56 µM"}
{"Molecule": "CCC(=O)O[C@H]1[C@H](C)O[C@@H](O[C@H]2[C@H](N(C)C)[C@@H](O)[C@H](O[C@H]3[C@@H](CC=O)C[C@@H](C)[C@@H](O)/C=C/C=C/C[C@@H](C)OC(=O)C[C@@H](O)[C@@H]3OC)O[C@@H]2C)C[C@@]1(C)O", "test": "growth", "system": "SG 137, DMSO–methanol", "conditions": "50 µL of 2.0 mM, 24 h, 37 °C", "quantity": "inhibition zone diameter", "value": "11 mm"}
{"Molecule": "O=C(Nc1ccccc1)c1ccccc1O", "test": "microbial growth, broth dilution", "system": "ATCC27853", "quantity": "MIC", "value": "> 64 µg/mL"}
{"Molecule": "CC[C@H](C)[C@H](NC(=O)CNC(=O)[C@H](CCC(=O)O)NC(=O)[C@H](CO)NC(=O)[C@@H](NC(=O)[C@H](CCCNC(=N)N)NC(=O)[C@H](CCCCN)NC(=O)[C@H](CCCCN)NC(=O)[C@H](C)NC(=O)[C@H](CO)NC(=O)[C@H](CC(N)=O)NC(=O)[C@H](CCC(=O)O)NC(=O)[C@H](CC(C)C)NC(=O)[C@H](CCCCN)NC(=O)[C@H](CCCCN)NC(=O)[C@H](C)NC(=O)[C@@H](NC(=O)[C@H](CCCCN)NC(=O)[C@H](CO)NC(=O)[C@H](CC(C)C)NC(=O)[C@H](Cc1c[nH]c2ccccc12)NC(=O)[C@@H](N)CO)[C@@H](C)O)[C@@H](C)CC)C(=O)N[C@@H](C)C(=O)N[C@H](C(=O)N[C@@H](C)C(=O)N[C@H](C(=O)N[C@@H](CCC(N)=O)C(=O)NCC(=O)NCC(=O)N1CCC[C@H]1C(=O)N[C@@H](CCCNC(=N)N)C(=O)O)[C@@H](C)CC)[C@@H](C)CC", "test": "broth microdilution", "conditions": "18 h, 10 clinical isolates", "quantity": "MIC50", "value": "8 µg/mL"}
{"Molecule": "CC[C@@H](C)[C@@H](NC(=O)[C@@H](C)NC(=O)[C@@H](CCCNC(=N)N)NC(=O)[C@@H](Cc1c[nH]c2ccccc12)NC(=O)[C@@H](CCC(N)=O)NC(=O)[C@H](N)C(C)C)C(=O)N[C@H](CCCNC(=N)N)C(=O)N[C@@H](C(=O)N[C@H](CCCNC(=N)N)C(=O)N[C@@H](C(=O)N[C@@H](C(=O)N[C@H](CCCNC(=N)N)C(N)=O)[C@H](C)CC)C(C)C)C(C)C", "conditions": "with: serine hydroxamate 500 µM", "quantity": "concentration abolishing (p)ppGpp accumulation", "value": "1 µg/mL"}
{"Molecule": "CC(C)(O/N=C(\\C(=O)N[C@@H]1C(=O)N2C(C(=O)[O-])=C(C[n+]3ccccc3)CS[C@H]12)c1csc(N)n1)C(=O)O", "test": "checkerboard broth microdilution", "system": "clinical isolate 17-99", "conditions": "with: ranalexin", "quantity": "FIC index", "value": 1}
{"Molecule": "VQWRAIRVRVIR", "test": "biofilm formation", "system": "peptide, PAO1", "conditions": "24 h, 37 °C", "quantity": "MBIC", "value": "32 µg/mL"}
{"Molecule": "Cc1cc(O)n(C(N)=S)n1", "test": "broth microdilution, agar subculture", "system": "ATCC 25619", "conditions": "24 h", "quantity": "MBC", "value": "> 1000 µg/mL"}
{"Molecule": "COCCSc1nnc(C23CC4CC(CC(C4)C2)C3)n1-c1ccccc1", "system": "IFO 3448", "conditions": "200 µg/disc, 24 h, 37 °C", "quantity": "inhibition zone diameter", "value": "< 10 mm"}
{"Molecule": "TRSSRAGLQWPVGRVHRLLRK-NH2 (C-amide)", "test": "bacterial growth, broth microdilution", "system": "peptide, PAO1, Mueller-Hinton broth", "conditions": "overnight, 37 °C", "quantity": "MIC50", "value": "> 25.9 µg/mL"}
{"Molecule": "CCN1CCN(C(=O)N[C@@H](C(=O)N[C@@H]2C(=O)N3[C@@H]2SC(C)(C)[C@@H]3C(=O)O)c2ccccc2)C(=O)C1=O", "test": "checkerboard broth microdilution", "system": "clinical isolate 8-97", "conditions": "with: magainin II", "quantity": "FIC index", "value": 0.187}
{"Molecule": "COc1cc(/C=C2/SC(Nc3ccc(S(N)(=O)=O)cc3)=NC2=O)ccc1O", "test": "microbial growth", "system": "ATCC10145", "conditions": "50 µg/mL, 24 h", "quantity": "inhibition", "value": "27%"}
{"Molecule": "O=c1cc(-c2ccc(O)c(O)c2)oc2cc(O)cc(O)c12", "test": "microbial growth", "system": "ATCC15692 PAO1", "conditions": "11.1 µM", "quantity": "inhibition", "value": "> 50%"}
{"Molecule": "CNC(C)C1CCC(N)C(OC2C(N)CC(N)C(OC3OCC(C)(O)C(NC)C3O)C2O)O1 (stereo not drawn)", "system": "IFO 3448", "conditions": "100 µg/disc, 24 h", "quantity": "inhibition zone diameter", "value": "19 mm"}
{"Molecule": "CO/N=C(\\C(=O)N[C@@H]1C(=O)N2C(C(=O)O)=C(CSc3nc(=O)c(=O)[nH]n3C)CS[C@H]12)c1csc(N)n1", "test": "checkerboard broth microdilution", "system": "clinical isolate 17-99", "conditions": "with: ranalexin", "quantity": "FIC index", "value": 1.25}
{"note": "Repeated from above:"}
{"Molecule": "O=C(O)CSc1nnc(C23CC4CC(CC(C4)C2)C3)n1-c1ccccc1", "system": "IFO 3448", "conditions": "200 µg/disc, 24 h, 37 °C", "quantity": "inhibition zone diameter", "value": "< 10 mm"}
{"Molecule": "CC(=O)N[C@@H](C)C(=O)N[C@@H](CCC(N)=O)C(=O)N[C@@H](CCCCN)C(=O)N[C@@H](CC(C)C)C(=O)N[C@@H](CC(C)C)C(=O)N[C@@H](CCCCN)C(=O)N[C@@H](CCCCN)C(=O)N[C@@H](Cc1ccccc1)C(=O)N[C@@H](CO)C(=O)N[C@@H](CC(C)C)C(=O)N[C@@H](CC(C)C)C(=O)N[C@@H](CCCCN)C(=O)N1CCC[C@H]1C(=O)N[C@@H](Cc1c[nH]c2ccccc12)C(=O)N[C@@H](C)C(=O)O", "test": "spermidine uptake", "system": "PA14", "conditions": "25 µM, 45 min pretreatment, 35 °C, with: [14C]spermidine, 15 min", "quantity": "inhibition", "value": "66%"}
{"Molecule": "O=C(Nc1ccccc1)c1ccccc1O", "test": "microbial growth, broth dilution", "system": "ATCC27853", "quantity": "MIC", "value": "> 64 µg/mL"}
